Published values pooled from the literature.
Several values in a cell are separate wells, animals, samples, runs or records.
CDK2 with cyclin E: Cyclin-dependent kinase 2, with cyclin E (CDK2, Homo sapiens, UniProt P24941)
CDK2 with cyclin A: Cyclin-dependent kinase 2, with cyclin A (CDK2, Homo sapiens, UniProt P24941)
CDK2 with cyclin E1: Cyclin-dependent kinase 2, with cyclin E1 (CDK2, Homo sapiens, UniProt P24941)
CDK2 with cyclin A1: Cyclin-dependent kinase 2, with cyclin A1 (CDK2, Homo sapiens, UniProt P24941)

SMILES	target	assay	setting	inhibition
Cc1cccc(O[C@H]2CCC[C@@H](C(C)CNCc3ccncc3)C2)c1 (relative stereo)	CDK2 with cyclin E	kinase activity, kinome panel screening	10 µM	-4%
NC(=O)C[C@H]1CCc2sc3ncnc(O[C@H]4CC[C@H](N5CCOCC5)CC4)c3c21	CDK2 with cyclin E	enzyme activity, inhibitor	10 µM	27%
C=CC(=O)N1Cc2nc(-c3cc(-c4cc(Cl)cnc4Cl)c(F)cc3F)n(-c3ccncn3)c2C1	CDK2 with cyclin A	cell-free assay, inhibitor	1 µM	7.1%
CN1CCN(Cc2ccc(-c3ccc(CO[C@H]4CCC[C@@H]4NC(=O)c4cc(-c5cnn(C)c5)cnc4N)cc3)cc2)CC1	CDK2 with cyclin E1	enzyme activity, inhibitor	0.1 µM	-17%
NC(=O)[C@@H](O)C[C@H]1CCc2sc3ncnc(O[C@H]4CC[C@H](N5CCOCC5)CC4)c3c21	CDK2 with cyclin A1	enzyme activity, inhibitor	10 µM	41%
COc1ccc(O)cc1-c1c[nH]c2ncc(-c3cncc(C(=O)N(C)C)c3)cc12	CDK2 with cyclin E1	binding, competition with immobilised ligand	0.2 µM	10.4%
C[C@H]1CN(C(=O)c2cn(-c3ccnc(N)n3)c3cc(C#CC4(O)CCCCC4)ccc23)CCN1	CDK2 with cyclin A	enzyme activity, inhibitor, FRET	1 µM	2%
CN1CC[C@@H](COc2cnc(C#N)cc2-c2ccn3nc(NC(=O)C4CC4)cc3c2)C1	CDK2 with cyclin E	enzyme activity, inhibitor	1 µM	4%
C=CC(=O)Nc1cccc(-c2cnc3[nH]cc(C(=O)NC(C)(C)C)c3n2)c1	CDK2 (Homo sapiens, UniProt P24941)	kinase activity	0.1 µM	17% and 20%
CCn1cc(C(=O)O)c(=O)c2c(N)c(F)c(NC3CCCCC3)cc21	CDK2 with cyclin A1	kinase activity	0.1 µM, together with: ATP at Km	33.1%
COc1ccc(C(=O)/C=C/c2ccccc2-c2c[nH]c3ccc(C#N)cc23)c(O)c1	CDK2 with cyclin A	enzyme activity, inhibitor	20 µM	-9%

A few entries again:
SMILES	target	assay	setting	inhibition
C[C@H]1CN(C(=O)c2cn(-c3ccnc(N)n3)c3cc(C#CC4(O)CCCCC4)ccc23)CCN1	CDK2 with cyclin A	enzyme activity, inhibitor, FRET	1 µM	2%
